Published values gathered from unrelated publications.
Protocols differ between the studies behind these lines.
rep nsp14: Replicase polyprotein 1ab, nsp14 (rep, Severe acute respiratory syndrome coronavirus 2, UniProt P0DTD1)
SLC22A11: Solute carrier family 22 member 11 (SLC22A11, Homo sapiens, UniProt Q9NSA0)
UniProt Q9NSA0, sequence (whole entry, looked up): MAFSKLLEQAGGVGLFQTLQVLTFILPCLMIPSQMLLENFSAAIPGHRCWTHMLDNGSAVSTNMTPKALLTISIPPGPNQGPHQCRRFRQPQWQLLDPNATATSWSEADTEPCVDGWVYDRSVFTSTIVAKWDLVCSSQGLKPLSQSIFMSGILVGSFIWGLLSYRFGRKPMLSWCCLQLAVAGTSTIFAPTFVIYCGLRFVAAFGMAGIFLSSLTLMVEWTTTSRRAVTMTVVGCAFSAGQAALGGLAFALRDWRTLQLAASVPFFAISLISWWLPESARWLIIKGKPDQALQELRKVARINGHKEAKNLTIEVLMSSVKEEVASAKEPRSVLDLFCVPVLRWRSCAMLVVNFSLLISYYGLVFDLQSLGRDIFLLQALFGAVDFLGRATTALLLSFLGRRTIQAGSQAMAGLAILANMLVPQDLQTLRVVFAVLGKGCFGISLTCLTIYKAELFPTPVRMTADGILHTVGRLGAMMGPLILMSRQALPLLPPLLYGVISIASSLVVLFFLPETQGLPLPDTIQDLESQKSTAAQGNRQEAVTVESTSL
gag-pol reverse transcriptase: Gag-Pol polyprotein, reverse transcriptase (gag-pol, Human immunodeficiency virus 1, UniProt P03366)
UniProt P14902, sequence (whole entry, looked up): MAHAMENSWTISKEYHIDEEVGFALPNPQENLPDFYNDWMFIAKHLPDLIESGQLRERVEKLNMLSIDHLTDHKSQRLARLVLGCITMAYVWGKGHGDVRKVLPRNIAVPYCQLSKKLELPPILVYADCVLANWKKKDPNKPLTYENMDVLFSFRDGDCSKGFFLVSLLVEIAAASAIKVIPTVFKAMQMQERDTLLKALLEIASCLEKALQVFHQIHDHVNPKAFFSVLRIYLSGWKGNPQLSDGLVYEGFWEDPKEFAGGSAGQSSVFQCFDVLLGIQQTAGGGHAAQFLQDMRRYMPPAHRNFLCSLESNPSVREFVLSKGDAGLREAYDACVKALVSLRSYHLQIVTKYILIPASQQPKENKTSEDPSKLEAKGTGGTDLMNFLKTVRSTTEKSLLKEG
UniProt Q8NER1, sequence (whole entry, looked up): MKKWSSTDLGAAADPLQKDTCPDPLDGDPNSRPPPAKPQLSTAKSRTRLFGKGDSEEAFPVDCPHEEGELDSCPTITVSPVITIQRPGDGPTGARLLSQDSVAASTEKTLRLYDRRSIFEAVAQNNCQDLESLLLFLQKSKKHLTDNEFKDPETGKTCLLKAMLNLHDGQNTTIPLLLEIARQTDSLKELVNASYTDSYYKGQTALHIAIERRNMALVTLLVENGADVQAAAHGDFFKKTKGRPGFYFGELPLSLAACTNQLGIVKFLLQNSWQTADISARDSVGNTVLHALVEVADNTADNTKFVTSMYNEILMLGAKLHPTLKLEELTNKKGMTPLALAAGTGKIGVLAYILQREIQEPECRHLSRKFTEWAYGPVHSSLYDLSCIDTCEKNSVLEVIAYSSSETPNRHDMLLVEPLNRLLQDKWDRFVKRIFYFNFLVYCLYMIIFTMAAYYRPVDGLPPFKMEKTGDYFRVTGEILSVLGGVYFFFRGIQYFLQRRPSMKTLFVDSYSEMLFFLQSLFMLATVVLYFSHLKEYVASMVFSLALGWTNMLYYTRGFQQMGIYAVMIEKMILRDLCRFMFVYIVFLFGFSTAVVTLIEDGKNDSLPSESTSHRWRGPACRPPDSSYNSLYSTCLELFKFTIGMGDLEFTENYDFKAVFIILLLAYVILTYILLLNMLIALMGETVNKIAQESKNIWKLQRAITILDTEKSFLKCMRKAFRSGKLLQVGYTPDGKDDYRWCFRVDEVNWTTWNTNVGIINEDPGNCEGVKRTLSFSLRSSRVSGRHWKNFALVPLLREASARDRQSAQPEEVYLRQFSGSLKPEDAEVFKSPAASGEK
UniProt P11388, sequence (whole entry, looked up): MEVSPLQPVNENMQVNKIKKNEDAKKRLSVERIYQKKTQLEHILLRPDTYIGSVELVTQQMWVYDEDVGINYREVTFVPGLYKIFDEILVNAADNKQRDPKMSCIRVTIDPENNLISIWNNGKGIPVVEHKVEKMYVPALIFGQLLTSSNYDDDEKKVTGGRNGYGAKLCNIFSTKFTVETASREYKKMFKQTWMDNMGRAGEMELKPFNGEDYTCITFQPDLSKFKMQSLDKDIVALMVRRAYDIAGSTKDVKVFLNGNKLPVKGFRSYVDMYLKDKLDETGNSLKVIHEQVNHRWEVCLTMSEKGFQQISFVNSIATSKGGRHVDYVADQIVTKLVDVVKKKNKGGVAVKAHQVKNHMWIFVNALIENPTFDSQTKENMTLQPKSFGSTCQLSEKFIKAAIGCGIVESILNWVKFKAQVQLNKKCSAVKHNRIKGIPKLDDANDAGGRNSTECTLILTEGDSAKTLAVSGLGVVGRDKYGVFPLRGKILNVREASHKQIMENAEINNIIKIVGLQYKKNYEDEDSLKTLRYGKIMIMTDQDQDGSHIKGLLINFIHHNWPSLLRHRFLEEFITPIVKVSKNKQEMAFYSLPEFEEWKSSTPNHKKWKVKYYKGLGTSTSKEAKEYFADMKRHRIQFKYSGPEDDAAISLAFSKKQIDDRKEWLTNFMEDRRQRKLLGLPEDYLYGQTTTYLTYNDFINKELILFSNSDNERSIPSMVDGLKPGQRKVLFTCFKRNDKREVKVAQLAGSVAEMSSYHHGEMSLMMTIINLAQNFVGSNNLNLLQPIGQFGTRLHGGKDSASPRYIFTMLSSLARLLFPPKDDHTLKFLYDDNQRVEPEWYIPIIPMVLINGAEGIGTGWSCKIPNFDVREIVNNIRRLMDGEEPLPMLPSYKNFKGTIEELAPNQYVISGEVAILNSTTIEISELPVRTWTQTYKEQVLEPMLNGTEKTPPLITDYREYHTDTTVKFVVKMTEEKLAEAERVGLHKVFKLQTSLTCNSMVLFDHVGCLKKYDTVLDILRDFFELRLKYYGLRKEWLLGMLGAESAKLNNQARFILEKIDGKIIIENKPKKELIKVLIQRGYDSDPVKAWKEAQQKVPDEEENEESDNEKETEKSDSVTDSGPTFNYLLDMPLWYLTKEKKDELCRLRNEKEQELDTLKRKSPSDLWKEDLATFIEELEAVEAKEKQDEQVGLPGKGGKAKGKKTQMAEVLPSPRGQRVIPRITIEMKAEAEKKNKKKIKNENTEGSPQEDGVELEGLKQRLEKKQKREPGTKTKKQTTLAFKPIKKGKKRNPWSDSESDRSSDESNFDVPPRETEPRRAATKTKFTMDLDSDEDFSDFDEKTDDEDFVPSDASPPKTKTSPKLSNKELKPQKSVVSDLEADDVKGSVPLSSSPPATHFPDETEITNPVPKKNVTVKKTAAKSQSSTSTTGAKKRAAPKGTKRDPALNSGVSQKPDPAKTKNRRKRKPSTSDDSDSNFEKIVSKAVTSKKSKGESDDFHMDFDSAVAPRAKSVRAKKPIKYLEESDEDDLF

For CCn1c(C(=O)NCc2ccccc2OC)cc(S(=O)(=O)N2CCC(C)CC2)c1C, the IC50 was 0.076 µM (rep nsp14; inhibitor).
COc1cc([C@@H]2c3cc4c(cc3[C@@H](O[C@@H]3O[C@@H]5CO[C@@H](C)O[C@H]5[C@H](O)[C@H]3O)[C@H]3COC(=O)[C@H]23)OCO4)cc(OC)c1O: “mean linear DNA” 24.3% (TOP2A (Homo sapiens, UniProt P11388); DNA cleavage; 125 µM).
Fc1ccccc1Cc1nc(-c2nc(C(F)(F)F)n[nH]2)cn2ccnc12: “subjects with skin TEAEs” 0% (healthy human subjects, both sexes; oral, 10 mg, fed).
Cc1cnc(NC(=O)C2=C(O)c3ccccc3S(=O)(=O)N2C)s1 has an IC50 of 108 µM (SLC22A11; transporter uptake, inhibitor, radiometric).
The IC50 of Cc1c(S(=O)(=O)N2CCC(C)CC2)cc(C(=O)NCc2cccc3c2OCO3)n1C is reported as 0.084 µM (rep nsp14; inhibitor).
For Cc1cc(C)cc(S(=O)(=O)c2c(C(=O)NCCNS(=O)(=O)C3CC3)[nH]c3ccc(Cl)cc23)c1, the IC50 was 0.057 µM (gag-pol reverse transcriptase; enzyme activity, inhibitor, ELISA).
N[C@@H](Cc1c[nH]c2ccccc12)C(=O)O has a Kd of 26000 µM (IDO1 (Homo sapiens, UniProt P14902); binding, optical absorption titration; second site, cyanide-bound ferric).
For CO/N=C(\C(=O)N[C@@H]1C(=O)N2C(C(=O)O)=C(COC(C)=O)CS[C@H]12)c1csc(N)n1, the MIC was over 16 µg/mL (Salmonella enterica serovar Infantis; broth microdilution; clinical isolate RKI-No 277/14).
With CCCc1nc2c(C)cc(-c3nc4ccccc4n3C)cc2n1Cc1ccc(-c2ccccc2C(=O)O)cc1 the IC50 was 43.6 µM (SLC22A11; transporter uptake, inhibitor, radiometric).
COc1ccccc1CNC(=O)c1cc(S(=O)(=O)N2CCc3ccccc3C2)c(C)s1 gave an IC50 of 0.019 µM (rep nsp14; inhibitor).
The IC50 of Cc1cc(C)cc(S(=O)(=O)c2c(C(=O)NCCCCNS(=O)(=O)c3cccnc3)[nH]c3ccc(Cl)cc23)c1 is reported as 0.077 µM (gag-pol reverse transcriptase; enzyme activity, inhibitor, ELISA).
With C=C(C)[C@]12C[C@@H](C)[C@@]34O[C@](Cc5ccccc5)(O[C@@H]1[C@@H]3C=C(COC(=O)Cc1ccc(O)c(OC)c1)C[C@]1(O)C(=O)C(C)=C[C@@H]41)O2 the EC50 was 0.00501 µM (TRPV1 (Homo sapiens, UniProt Q8NER1); Ca2+ influx, agonist, BRET; HEK-293T).
COC(=O)Nc1c(N)nc(-c2nn(Cc3ccccc3F)c3ncc(F)cc23)nc1N gave a Cmax ratio of 1.03 (healthy male humans, plasma; 10 mg once daily, day 6 vs day 5, fed, multiple dose, added: warfarin 25 mg single dose; reference: with over without warfarin).

Excerpt of the above:
COC(=O)Nc1c(N)nc(-c2nn(Cc3ccccc3F)c3ncc(F)cc23)nc1N gave a Cmax ratio of 1.03 (healthy male humans, plasma; 10 mg once daily, day 6 vs day 5, fed, multiple dose, added: warfarin 25 mg single dose; reference: with over without warfarin).
